Experimental data collected from several papers.
Parts stem from different laboratories: compare values within a part only. Substitutions count along the parent as printed.

Block 1
Target: ABI1, truncated, D143A, DHFR fusion (Arabidopsis thaliana)
Method: DHFR PCA, deep sequencing
Medium: yeast
Notes: methotrexate growth selection, single substitutions
Added: (+)-ABA 4.8 µM
Reference: wild-type fitted maximum
Direction: higher = stronger binding
Starting sequence: PYL1, truncated, DHFR fusion (Arabidopsis thaliana); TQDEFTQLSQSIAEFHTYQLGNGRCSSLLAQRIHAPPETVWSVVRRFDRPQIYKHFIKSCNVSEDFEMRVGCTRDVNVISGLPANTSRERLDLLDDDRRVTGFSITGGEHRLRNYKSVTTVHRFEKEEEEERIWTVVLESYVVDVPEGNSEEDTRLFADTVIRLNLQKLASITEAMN; partner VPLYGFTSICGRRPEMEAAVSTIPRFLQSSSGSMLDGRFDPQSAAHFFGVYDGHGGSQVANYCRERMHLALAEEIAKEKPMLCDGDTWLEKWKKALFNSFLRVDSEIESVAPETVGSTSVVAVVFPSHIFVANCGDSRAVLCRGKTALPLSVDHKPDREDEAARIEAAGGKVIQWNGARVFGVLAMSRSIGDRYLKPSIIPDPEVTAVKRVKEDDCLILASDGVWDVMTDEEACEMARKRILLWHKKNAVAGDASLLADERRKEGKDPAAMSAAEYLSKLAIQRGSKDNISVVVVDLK
Variant | relative binding score
R132M | 78.5%
G81Y | 5.71%
S80Y | 40.5%
V70P | 77%
V161W | 35.6%
A30P | 1.96%
E174K | 15.5%
D96G | 1.01%
A175Q | 82.7%
H16W | 10.4%
V136R | 1.45%
S140I | 1.31%
M176D | 61.3%
I162C | 21.2%
R99V | -11.5%

Block 2
Target: MAFF, bZIP domain (human)
Method: DHFR protein complementation
Medium: yeast
Notes: single substitutions, most at no-binding floor
Reference: wild-type JUN-FOS pair
Direction: higher = stronger binding
Starting sequence: JUN, bZIP domain (human); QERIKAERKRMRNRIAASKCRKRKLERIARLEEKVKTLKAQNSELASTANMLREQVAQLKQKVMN; partner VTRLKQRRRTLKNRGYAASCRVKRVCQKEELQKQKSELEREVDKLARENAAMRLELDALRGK
Variant | binding fitness
R53P | -1.51 natural log
K34S | -1.51 natural log
L31Y | -1.33 natural log
L52D | -1.51 natural log
A40P | -1.47 natural log
Q41A | -1.4 natural log
K39Y | -1.53 natural log
Q41W | -1.43 natural log
A49W | -1.48 natural log
A29N | -1.36 natural log
N42Y | -0.981 natural log
I28Y | -1.51 natural log
A40Y | -1.4 natural log
L31T | -1.4 natural log
Q41V | -1.49 natural log
L38A | -1.41 natural log
A29W | -1.47 natural log
S43A | -1.38 natural log
E33V | -1.22 natural log
E33R | -1.43 natural log
A29E | -1.26 natural log
V56S | -1.52 natural log
E32T | -1.49 natural log
L38R | -1.46 natural log
E44Q | -1.39 natural log

Block 3
Target: Ras GTPase-activating protein-binding protein 1, full length (G3BP1, Homo sapiens, UniProt Q13283)
Sequence of UniProt Q13283 (whole entry, looked up): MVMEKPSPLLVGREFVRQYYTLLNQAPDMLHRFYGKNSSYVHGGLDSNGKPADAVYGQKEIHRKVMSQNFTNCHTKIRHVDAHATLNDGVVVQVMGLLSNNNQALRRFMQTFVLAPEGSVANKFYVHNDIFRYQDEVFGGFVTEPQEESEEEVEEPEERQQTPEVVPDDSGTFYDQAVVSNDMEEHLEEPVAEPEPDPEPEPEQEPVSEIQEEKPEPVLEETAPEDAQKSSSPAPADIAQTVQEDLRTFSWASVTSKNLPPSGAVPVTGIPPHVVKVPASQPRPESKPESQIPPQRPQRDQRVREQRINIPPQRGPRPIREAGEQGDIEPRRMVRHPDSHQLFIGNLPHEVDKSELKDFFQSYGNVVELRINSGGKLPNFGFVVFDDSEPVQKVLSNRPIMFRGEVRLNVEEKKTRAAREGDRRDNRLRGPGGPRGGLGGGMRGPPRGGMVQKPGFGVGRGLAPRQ
Method: RNA Bind-n-Seq
Molecule type: RNA
Medium: in vitro
Tested at: 200 nM
Notes: whole 134-nt RNA, ends assumed
Added: 150 mM KCl
Reference: input library
Direction: higher = stronger binding
Constant ends, left off below: GGGAGUUCUACAGUCCGACGAUC … UGGAAUUCUCGGGUGUCAAGG
Sequence | log2 enrichment
AGUCCUGUGCUACACAUCGUAUGUACCGAAUCGGGAAAAGGGAAAAGGGAAAAGGGGAAAGUAUUAUGUUACGCCGUUCGGAUCUGCACU | 0.326
UGGCCCUGGUGGCAUGCGGGGAGGAAGAGUUGGCCUCAUGGAUCGUGGUGGUCCCGGUGGAAUGUUCAGAGGUGGCCGUGGUGGAGACAG | 0.044
AGUCCUGUGCUACACAUCGUAUGUACCGAAUCGGUUUUGGGGUUUUGGGGUUUUGGGGAAAGUAUUAUGUUACGCCGUUCGGAUCUGCAC | -0.408
UUACACCAAUGAGAAGCUGCAGCAGCUCUUCAACCACACCAUGUUCAUCCUGGAGCAGGAGGAGUACCAGCGCGAGGGCAUCGAGUGGAA | -0.557
UCCUGUGCUACACAUCGUAUGUACCGAAUCGGGUUUUUUGGUUUUUUGGUUUUUUGGGGAAAGUAUUAUGUUACGCCGUUCGGAUCUGCA | -0.826
UGGGAGGUGGAUUUUGUUUAUUUUUUUAGCUCAUUUCCAGGGGUGGGAAUUUUUUUUUAAUAUGUGUCAUGAAUAAAGUUGUUUUUAAAA | 0.225
CAAGUCCUGUGCUACACAUCGUAUGUACCGAAUCGGGAAAGGAAAGGGGAAAGGGAAAGUAUUAUGUUACGCCGUUCGGAUCUGCACUUC | 0.179
UGUGCUACACAUCGUAUGUACCGAAUCGGGGAAAAAAAGGGAAAAAAAGGGAAAAAAAGGGGAAAGUAUUAUGUUACGCCGUUCGGAUCU | -0.626
GUCCUGUGCUACACAUCGUAUGUACCGAAUCGGGUUUGGGAAAAAAAGGGUUUUUGGGAAAGUAUUAUGUUACGCCGUUCGGAUCUGCAC | -0.266
AGGAAAAUGUUUAUAGGAGGCCUUAGCUGGGACACUACAAAGAAAGAUCUGAAGGACUACUUUUCCAAAUUUGGUGAAGUUGUAGACUGC | -0.682
UUGGGCUGCCCAUCACCGUGGCCCAUGUGGAUGGCCAAACCCACAUGUUAUUUGGCUCUGACCGGAUGGAGCUGCUGGCGCACCUGCUGG | -1.49
AAGUCCUGUGCUACACAUCGUAUGUACCGAAUCGGGGAAAGGGAAAGGGAAAGGGGAAAGUAUUAUGUUACGCCGUUCGGAUCUGCACUU | 0.413
CCUCAAGUCCUGUGCUACACAUCGUAUGUACCGAAUCGGGAGGAGGGGAGGGAAAGUAUUAUGUUACGCCGUUCGGAUCUGCACUUCCAG | 1.22
GUCCUGUGCUACACAUCGUAUGUACCGAAUCGGGGAGGGGUUUUUGGGGUUUUUGGGGAAAGUAUUAUGUUACGCCGUUCGGAUCUGCAC | 0.321

Block 4
Target: UBE2D1 UBC core domain (UniProt P51668)
Method: yeast two-hybrid
Medium: yeast
Notes: mostly zero background
Reference: not given
Direction: higher = stronger interaction
B1: NFX1 RING domain (UniProt Q12986); chain IEQLTTEKYECMVCCELVRVTAPVWSCQSCYHVFHLNCIKKWARSPASQADGQSGWRCPACQNVSAHVPNTY
B2: MKRN3 RING domain (UniProt Q13064); chain FAVQRGMDKVCGICMEVVYEKANPNDRRFGILSNCNHSFCIRCIRRWRSARQFENRIVKSCPQCRVTSELVIPSE
B3: BFAR RING domain (UniProt Q9NZS9); chain GPQISVSEFSCHCCYDILVNPTTLNCGHSFCRHCLALWWASSKKTECPECREKWEGFPKVS
B4: ZNRF4 RING domain (UniProt Q8WWF5); chain VRTFTWHNDLCAICLDEYEEGDQLKILPCSHTYHCKCIDPWFSQAPRRSCPVCKQSVAATEDSF
B5: RNF103 RING domain (UniProt O00237); chain WPADMLHCTECVVCLENFENGCLLMGLPCGHVFHQNCIVMWLAGGRHCCPVCRWPSYKKKQPY
B6: ARIH2 RING domain (UniProt O95376); chain HVPTSHPPHHCAVCMQFVRKENLLSLACQHQFCRSCWEQHCSVLVKDGVGVGVSCMAQDCPLRTPEDFVF
B7: RNF186 RING domain (UniProt Q9NXI6); chain HSGSTECDLECLVCREPYSCPRLPKLLACQHAFCAICLKLLLCVQDNTWSITCPLCRKVTAVPGGLI
Residues (chain): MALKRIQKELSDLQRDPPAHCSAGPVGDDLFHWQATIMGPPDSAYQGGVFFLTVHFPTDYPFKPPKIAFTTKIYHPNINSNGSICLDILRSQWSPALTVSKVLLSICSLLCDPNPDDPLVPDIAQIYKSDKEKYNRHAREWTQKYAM
Molecule | lacZ reporter activity
LEALSSDFLACKICLEQLRAPKTLPCLHTYCQDCLAQLADGGRVRCPECRETVPVPPEGV (TRIM56 RING domain (UniProt Q9BRZ2)) | 0
ASPKIFQKTKCSICNSALELPSVHFLCGHSFHQHCFESYSESDADCPTCLPENRKVMDMI (VPS11 RING domain (UniProt Q9H270)) | 0
B1 (NFX1 RING domain) | 0
B2 (MKRN3 RING domain) | 0
B3 (BFAR RING domain) | 0
EIKEYKARLTCPCCNTRKKDAVLTKCFHVFCFECVRGRYEARQRKCPKCNAAFGAHDFHR (RNF40 RING domain (UniProt O75150)) | 0
B4 (ZNRF4 RING domain) | 13700
B5 (RNF103 RING domain) | 16400
B6 (ARIH2 RING domain) | 0
FDPPLESKYECPICLMALREAVQTPCGHRFCKACIIKSIRDAGHKCPVDNEILLENQLFP (TRAF6 RING domain (UniProt Q9Y4K3)) | 0
B7 (RNF186 RING domain) | 0
LVKDFNPYITCYICKGYLIKPTTVTECLHTFCKTCIVQHFEDSNDCPRCGNQVHETNPLE (PCGF5 RING domain (UniProt Q86SE9)) | 0

Block 5
Target: RNA binding protein fox-1 homolog 2, RRM domain, GST-SBP tag (RBFOX2, Homo sapiens, UniProt O43251-10, residues 100-194)
Method: RNA Bind-n-Seq
Molecule type: RNA
Medium: in vitro
Tested at: 365 nM
Notes: natural RNA segment, single round, ends assumed
Reference: no-protein control
Direction: higher = stronger binding
Constant ends, left off below: GGGAGUUCUACAGUCCGACGAUC … UGGAAUUCUCGGGUGCCAA
Construct (chain): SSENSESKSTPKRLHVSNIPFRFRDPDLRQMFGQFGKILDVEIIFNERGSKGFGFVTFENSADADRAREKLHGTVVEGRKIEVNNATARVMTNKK
Sequence | RBNS enrichment (R)
CUGAGACAAAAAGGAAACAUAAGAGCUUUUUCACUCUAAAAAUCUUGGCAAUAAUGUCAACACCAGAAAGCCUCCUCUGGAGAAUCUUACAGAGUGAUUGUAGUUUAAUA | 0.249
GCCACCGAGUGUCUUCUCAUUUUAUUUCAGCUCCAUUUUGCCCAUAGAUGGGCAGAGGGGUGAGAUUGGCUCAUCCCCCUUCCAGAUUCUGCAAUAAAGCGGUGUGAGGA | 0.264
CAGGGUUUAGUCCUGGGGCUGGCACUCGUUGUGACUUACACAGAGCAAAAUUGUGCUAAAGGCUUUUCUACUCUGAGAUCUCAAUGCGAAAUGAAAACUCAGGCAGUUUA | 0.586
CUACCACUUCUUUGAGAACCUCUGCUUUACGGUUGACACUGAUGCUUAUCUUUCUCUGGAGUUACGGAUUUGCCUGUGGAUUUAAUGCUCACACCAUGCUAUUUAAUUUU | 1.89
AUAUUGUGCUAUGAUAACCAACCUUCUUCCAAGGAGUGACCAUUACUGCCUACAUUUGCGUUGCUUUCUACAUAGAGACUUGUAUAAUAGUAUUAAUAGUAGCUCAUUCU | 0.331
GUUGAUGUGGUAGCCACCUGCUGCAAUGGUUCCUCUUGUAGGUGAAUAAAUGUCUUGUCUACCCACACUCUUCCCAGGAUUGUGUCUCAUAAAAAUAUAUUUGGAAAUGU | 1.08
UAUAAUGUAGGGGGAUAGCGGGAUAUUUUUGUUUGUGUUCUUGUAAUAUAUUAUCCUUCCUUGGUUCUAGAAGAAUAGAUAAAUAUAUUUUUUUAGGCUAUAGAAUGAUA | 1.38
GAUCUGAAAAGGGCCACUGUUAGGCAAGACAGACAGUAUUGGAUAGGGUAAAGCAAGAAAACUCAAGCUGCAGCUGGACUGCAGGCUUAUUUUGCUUAAGUCAACAGUGC | 0.406
AGCCAUUGAGAGCUGUUCUUGUGAUCCAUGUCCUUCAUAAGCUGAACCACCACCAGAGAAAAGCAGGCCUGUGCAGUGCAGAUGCAAUGGAACGCAUCCCACCUUGCCAA | 0.529
GCUCCCGCUUCCACCCCCACUGUCCAUCCUGACCUUUCCUUGCCCCACUUUCAGAGUCGAAUCAGCUCUGAGCCUAGGACAGUGCUGGCUCUCUGAGGGCAACCAGGCCU | 0.26
GGGCCAAGCGCUGGCCCCUCAGCGGUGAGCCCUGCCCACUCUUACCGAGCAAGGUGGGUGGCUCUGGCACGAGUCCCCCAGGGGGAGAGCAUGGCUACCAGGGAGCUGCA | 13.5
CUUUAAUUAUUUUUUUCAAUUUCAAGUUUAAUUUUAUUUUAGCUGAUCUGAUGUGGUUUCAACUAACCCAAGGUCUCACCAUGUUAAAAUGCCGGCGGACUCUACGGCGU | 0.329

Block 6
Target: CCNB2, cyclin fold, Cln2 fusion (human)
Method: yeast growth competition, sequencing
Medium: yeast
Notes: weak parent motif
Reference: not given
Direction: higher = stronger binding
Starting sequence: TICRR docking peptide (human); TKVRRNLFNQELL
Variant | normalised enrichment score
R5K F8L | 0.578
T1A | 0.586
L7A | 0.595
L12A | 0.0557
N6A | 0.52
E11A | 0.512
R5K | 0.601
R5A | 0.701
F8A | -0.358
R5A L7A | 0.167

Excerpt of the above (block 4):
Molecule | lacZ reporter activity
FDPPLESKYECPICLMALREAVQTPCGHRFCKACIIKSIRDAGHKCPVDNEILLENQLFP (TRAF6 RING domain (UniProt Q9Y4K3)) | 0
B1 (NFX1 RING domain) | 0
B4 (ZNRF4 RING domain) | 13700
EIKEYKARLTCPCCNTRKKDAVLTKCFHVFCFECVRGRYEARQRKCPKCNAAFGAHDFHR (RNF40 RING domain (UniProt O75150)) | 0
B3 (BFAR RING domain) | 0
B7 (RNF186 RING domain) | 0
B5 (RNF103 RING domain) | 16400
